Assay results pooled from the literature.
A part holds a random share of what one study measured. Positions count from the first letter of the parent shown.

Block 1 — method: protein-binding microarray; form: double-stranded DNA, one strand shown; sample: in vitro; tested at: 250 nM; setting: 60-bp whole probe; added: salmon DNA 0.4 mg/ml; baseline: random background probes; direction: higher = stronger binding
Target: Interferon regulatory factor 7, full length, phosphomimetic (IRF7, Homo sapiens, UniProt Q92985, residues 1-503, S101K/S471D/S472D/S475D/S476D/S477D/S483D/S484D/S487D)
Chain of UniProt Q92985 (whole entry, unmodified, looked up): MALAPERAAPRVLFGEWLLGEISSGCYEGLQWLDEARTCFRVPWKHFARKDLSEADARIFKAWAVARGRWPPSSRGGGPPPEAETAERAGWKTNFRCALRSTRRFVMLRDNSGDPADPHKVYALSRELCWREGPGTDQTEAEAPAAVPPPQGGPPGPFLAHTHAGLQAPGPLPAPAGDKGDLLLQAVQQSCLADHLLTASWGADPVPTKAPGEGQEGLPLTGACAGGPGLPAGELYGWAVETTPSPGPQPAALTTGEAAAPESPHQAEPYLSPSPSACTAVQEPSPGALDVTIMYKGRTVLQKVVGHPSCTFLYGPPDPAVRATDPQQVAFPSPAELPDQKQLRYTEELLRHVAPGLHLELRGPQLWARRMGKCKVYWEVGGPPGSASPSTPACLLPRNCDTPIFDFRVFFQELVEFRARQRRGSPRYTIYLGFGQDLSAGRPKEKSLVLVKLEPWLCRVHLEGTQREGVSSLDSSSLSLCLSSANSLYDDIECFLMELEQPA
Constant ends, left off below: GCCTAGCAC … GTGCTAGGTCTTGATTCGCTTGACGCTGCTG
Oligonucleotide	log fluorescence
ACTAGATAAGACAAAGTGAT	-0.161 z-score
TTAGGTTTCCTTAGCCTTTA	0.914 z-score
GACGATATCGGTATCGGGAC	0.181 z-score
GACGATTTCTGTTCCGAGAC	1.16 z-score
TCAATGTTCACTATTTAACT	0.665 z-score
TTAGGTCTCCTACTGCTGTA	-0.444 z-score

Block 2 — target: CCNA1, cyclin fold, Cln2 fusion (human); method: yeast growth competition, sequencing; sample: yeast; setting: weak parent motif; baseline: not given; direction: higher = stronger binding
Starting sequence: PKN2 docking peptide (human); VSAVQKLDFSDTM
Variant	normalised enrichment score
K6F	0.163
V4G	-0.374
S10I	0.225
F9T	0.138
M13S	0.376

Block 3 — method: protein-binding microarray; form: double-stranded DNA, one strand shown; sample: in vitro; tested at: 0.8 µM; setting: whole 60-bp probe, no competitor; direction: higher = stronger binding; constant ends, left off below: … GTCTTGATTCGCTTGACGCTGCTG
Target: Centromere-binding protein 1, full length, N-terminal tag (CBF1, Saccharomyces cerevisiae, UniProt P17106, residues 1-351)
Chain of UniProt P17106 (whole entry, looked up): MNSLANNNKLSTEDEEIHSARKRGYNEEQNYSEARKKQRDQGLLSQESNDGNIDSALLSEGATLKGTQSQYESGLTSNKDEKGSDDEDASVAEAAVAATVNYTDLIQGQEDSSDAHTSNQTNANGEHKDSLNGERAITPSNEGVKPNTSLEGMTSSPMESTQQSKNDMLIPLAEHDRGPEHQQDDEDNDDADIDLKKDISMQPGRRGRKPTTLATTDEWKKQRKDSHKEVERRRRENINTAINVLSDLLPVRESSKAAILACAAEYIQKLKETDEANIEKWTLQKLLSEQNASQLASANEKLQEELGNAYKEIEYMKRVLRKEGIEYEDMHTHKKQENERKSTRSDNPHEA
Oligonucleotide	fluorescence intensity [a.u.]
CTACCTATGTAGAGCCTCGTCACCATACCTATATTC	623
GAATTCTTATTTTAAGTGATGATGTTCACGAACTAG	519
CTACATTTCCATCTTCACGCAATCGTCCGGGCATTC	546
GAACTAGAATTAAGTGAGGTGACAAGGTTTCCATAG	520
GAAACAACCTTGGACTTCGTGGTATTTTGATCCTAG	520
CTAACTAGAAGCGATAACATCACAGTTATACGTTTC	496
GAAATACATACAGAGCACATGCATGCCATATGATAG	842
GAAATAATACAGATTTGTGACGTATAAAGAAACTAG	552
CTAGTATTTGAAATGCATGTGATTTACAATCCTTTC	2350

Mixed results
Molecule	target	test	system	conditions	how to read	endpoint	result
PhoQ, residues 284 288 289 292 302 303 SSYNSA	PhoP, residues 12 14 15 18 19 HLGGL (Escherichia coli, UniProt P23836)	Sort-seq, refers to: YFP reporter	E. coli	PhoQ-PhoP variant library, added: 10 µM Mg2+	baseline: high Mg2+ state, higher = stronger signaling	fold induction	1.35

A few entries again (block 1):
Oligonucleotide	log fluorescence
TTAGGTCTCCTACTGCTGTA	-0.444 z-score
